# Measurements pooled from the literature.
# Every numbered part comes from another study and shows a few of its results, in no order. Changes are numbered by the printed parent chain.

# Sample 1
# Target: Interferon regulatory factor 7, full length, phosphomimetic (IRF7, Homo sapiens, UniProt Q92985, residues 1-503, S471D/S472D/S475D/S476D/S477D/S483D/S484D/S487D)
# UniProt Q92985, sequence (whole entry, unmodified, looked up): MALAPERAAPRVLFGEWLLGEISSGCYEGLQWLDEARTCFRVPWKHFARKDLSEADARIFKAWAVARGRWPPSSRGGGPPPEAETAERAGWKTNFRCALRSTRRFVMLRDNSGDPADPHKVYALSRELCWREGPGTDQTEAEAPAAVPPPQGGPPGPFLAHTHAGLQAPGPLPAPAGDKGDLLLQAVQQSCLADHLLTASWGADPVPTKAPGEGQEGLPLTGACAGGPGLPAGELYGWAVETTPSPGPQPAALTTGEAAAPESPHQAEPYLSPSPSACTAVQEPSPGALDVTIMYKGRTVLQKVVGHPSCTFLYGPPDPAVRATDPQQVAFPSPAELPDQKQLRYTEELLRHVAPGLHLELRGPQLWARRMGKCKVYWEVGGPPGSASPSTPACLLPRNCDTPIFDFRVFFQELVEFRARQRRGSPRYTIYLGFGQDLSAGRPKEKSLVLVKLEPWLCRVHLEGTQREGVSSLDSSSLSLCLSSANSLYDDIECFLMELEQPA
# Method: protein-binding microarray
# Form: double-stranded DNA, one strand shown
# Medium: in vitro
# Tested at: 2200 nM top
# Setting: 60-bp whole probe
# Together with: salmon DNA 0.4 mg/ml
# Baseline: random background probes
# Direction: higher = stronger binding
# Constant ends, left off below: GCCTAGCAC … GTCTTGATTCGCTTGACGCTGCTG
Oligonucleotide,fitted relative affinity [z-score]
ATAGAACTGAGTTTCGATTAGTGCTAG,3.9
GCCATTGTGGATCTTGCAGAGTGCTAG,0.29
CTCCTTTTAATTTTTAACGAGTGCTAG,1.17
CAAGGCAAGAAACAAACAACGTGCTAG,-1.11
TTAGGTATCCTACTGCTTTCGTGCTAG,1.9
TTAGGTTACGGTCTCGGTTAGTGCTAG,0.828
TTAGATTTCGGGTATCGACTAGTGCTA,2.73
GACCGTATCCTTTTCCTGACGTGCTAG,1.89
TGAGTAATTACATAATTACGGTGCTAG,-0.115
TTAGGTTGCGACTATCGGTTAGTGCTA,0.244
GACGGACTGGGTTTAGGGACGTGCTAG,-0.608
AAGACCATCCTATGTAGATGTGTGCTA,0.353
CACGATATCGGGTATCGAGACGTGCTA,0.382
GAAGGTTCCCTTTTCCTGACGTGCTAG,2.45
TCAAATCCCACATTTGATACTGTGCTA,0.779
ATAGATTCCAGTTTCGATTAGTGCTAG,6.82
TCATTTCTCTGCTCTTTTACTGTGCTA,2.69
CTAGGACTGGGTATCGGTTAGTGCTAG,-0.362
TTTCCTATGTCATTTACATTGTGCTAG,3.47

# Sample 2
# Target: ABI1, truncated, D143A, DHFR fusion (Arabidopsis thaliana)
# Method: DHFR PCA, deep sequencing
# Medium: yeast
# Setting: methotrexate growth selection, single substitutions
# Together with: (+)-ABA 710 µM
# Baseline: wild-type fitted maximum
# Direction: higher = stronger binding
# Parent: PYL1, truncated, DHFR fusion (Arabidopsis thaliana); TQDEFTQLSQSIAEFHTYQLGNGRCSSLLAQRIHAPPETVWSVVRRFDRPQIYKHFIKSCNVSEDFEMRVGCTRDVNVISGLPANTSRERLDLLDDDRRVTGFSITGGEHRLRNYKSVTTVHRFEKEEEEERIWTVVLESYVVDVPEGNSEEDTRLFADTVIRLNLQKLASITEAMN; partner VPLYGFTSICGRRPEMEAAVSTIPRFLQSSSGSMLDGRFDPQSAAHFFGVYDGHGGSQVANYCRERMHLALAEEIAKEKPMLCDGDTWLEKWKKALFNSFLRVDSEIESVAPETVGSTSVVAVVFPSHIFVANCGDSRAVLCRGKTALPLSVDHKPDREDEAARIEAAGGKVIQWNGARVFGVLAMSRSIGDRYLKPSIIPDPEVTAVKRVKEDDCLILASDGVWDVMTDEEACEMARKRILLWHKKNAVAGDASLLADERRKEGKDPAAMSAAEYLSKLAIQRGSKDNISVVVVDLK
Variant,relative binding score
I57R,4.33%
F66M,96.2%
Q7S,103%
L94M,103%
V145M,86.6%
S26P,40.2%
Q10E,109%
E14R,98.4%
T173I,96.8%
T73S,98.9%
D75F,100%
P37F,72%
T86Q,94.4%
E130D,108%
P83S,85.8%
T160V,88.7%
C60I,94.4%
E125Q,111%
S27W,55.4%
L20Q,103%
E128S,110%
Q167E,115%
S80F,74.1%

# Sample 3
# Target: RNA binding protein fox-1 homolog 2, RRM domain, GST-SBP tag (RBFOX2, Homo sapiens, UniProt O43251-10, residues 100-194)
# Method: RNA Bind-n-Seq
# Form: RNA
# Medium: in vitro
# Tested at: 365 nM
# Setting: natural RNA segment, single round, ends assumed
# Baseline: no-protein control
# Direction: higher = stronger binding
# Constant ends, left off below: GGGAGUUCUACAGUCCGACGAUC … UGGAAUUCUCGGGUGCCAA
# Residues (chain): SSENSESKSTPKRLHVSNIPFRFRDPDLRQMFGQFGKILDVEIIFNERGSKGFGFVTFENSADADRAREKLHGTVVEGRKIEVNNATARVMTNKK
Oligonucleotide,RBNS enrichment (R)
ACCCUGGGAAACACACCAAUCACCAACUUGCUCAUGACAUUGCUUCAGCUCCCUGAGAAGUAGCUCUUCCUCCAGGGCAUGGAAGGAUGGGAGGCCAGCAGGACCCUGCC,0.791
GUGGGGACGCCUGUUGUUUUGGCUCAAUUUGGGUUUGUUGGUCACAUGGAGCUCUUCCAUUUCGUUUAGCUGAAUAAUGAGUUGUUCCUAGAGGAGACAGCCUGUCUCUC,0.331
AUUCCUUGAGACUCUUUAGCAUUAGUGCUCUGAGGUUAAAAGCAGUUCGGAAGACUCAUCUAGCCCUUGGGUGCUGACCAGCAGAGCUGCUAGUGGAUAUUGGAGUUACA,0.247
CACUUUGUCUUACCUCAAUUGAGUAACAGAAUAUAGCUCCUGAAGGAAACACUGAUUUGCUUUCUGUUUCCCAUAUCUCACCUCUAGGAUAUGAUGGAAGAAGUGCUUGA,0.423
AUCCUUGUCCACCCCUCCCCUGGCUCCCAUGACCAUGACUGAGGGACCAAUGGGCCCAAGAUAGGUGCCCCAGAGCUGUUAAUGACUUCAGCUGCCUCACUUCCUGCAAG,0.763
UCUUCUAACUCUCCUUCUUCUGAAUUGUGCAGAGACUCUGUUAACUUCCCUUUUUGCACUUAGAUAACUUCCUACUUCAACCCCCUCCUUUAUCUUGGAUUUCUAAAGUU,0.567
UCCCAACACAAGACAAAGCUCAGGAUGCUGGUGAUGCUAGGAAGAUGUCCCUCCCCUCACUGCCCCACAUUCUCCCAGUGGCUCUACCAGCCUCACCCAUCAAACCAGUG,0.6
AAUUCCUGCACCUGGAGGAGUUCCCCAACCCCCGUGUUUGCGGGAGGAAGCAUUUGUACAGUGGCUAAUUUAAGGGGAGUGGGAGACCCUGUCACCCUGAGCACUCUGCG,0.763
CACUGCUACUUUGGCGUUAUUACUGUGUUCUCAGAAACUCGUUGUGCACCACUAGGAAUUAGUAGUAGAAAAAAAAAAACAAUAACAAAAAAAAAAAACAACUGGAAAUG,0.722
UAGGCAUACAAGUGGCUCCUGUUCCACAAUACUAACUACUAUAUUUCUACAUUGUGACUUGUUUUACUUUAAAAGGGGAUAAACAAAUUUAUAGCAACUAUAAAGUAUCA,0.608
ACCUGUGUGCCUGUGUUUUCCUGAACAGCUGCUUUCUGUCAGGCAGACUCCUCUGACCUGGAUGCGGUCACAUCCACCUUUAAGAUUGUCAGUGCAUACUCCUUCCUGAC,1.83
AAGAGCUAUUACAAUCCAAAUAUUGCCGUUUCAUAAAUGUAAUAAGUAAUACUAAUUCACAGAGUAUUGUAAAUGGUGGAUGACAAAAGAAAAUCUGCUCUGUGGAAAGA,0.414

# Sample 4
# Target: Histone acetyltransferase KAT6A, winged helix 1, GST fusion (KAT6A, Homo sapiens, UniProt Q92794, residues 1-85)
# Method: protein binding microarray
# Form: double-stranded DNA, one strand shown
# Medium: in vitro
# Tested at: not given
# Setting: 8-mer, flanks averaged, mean of 2 arrays, mostly near background
# Baseline: not given
# Direction: higher = stronger binding
# Target sequence (chain): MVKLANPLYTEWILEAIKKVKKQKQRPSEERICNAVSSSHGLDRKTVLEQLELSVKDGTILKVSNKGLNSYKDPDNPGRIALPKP
Oligonucleotide,E-score
GAAGCCTC,-0.0268
GAGTAGGA,-0.186
ATGGTACG,0.0264
GCTATGAA,-0.0876
GGTAGCTA,-0.0136
CAGGTATC,-0.161
AAGACCGA,0.0979
AGACTTTG,-0.203
CGAGCGGC,0.386
AACCAGCA,-0.333
CACGTACG,0.106
AACCAGCG,0.0773
AGGAATGC,-0.0877
TCAAGGGA,-0.112
GTGAAGAA,-0.185
ATTTGTAA,-0.203
CGCGCGAA,0.404
AAGGGCGC,0.187
AGGGCCTA,-0.113
CCCAGTGA,-0.243
ATGCGAAG,0.0161
AAATAGTG,-0.147
ATTTTATC,-0.0532
CCAGACGC,0.132
CAAACCTC,-0.197

# Sample 5
# Target: CCNA2, cyclin fold, Cln2 fusion (human)
# Method: yeast growth competition, sequencing
# Medium: yeast
# Setting: strong parent motif
# Baseline: not given
# Direction: higher = stronger binding
# Parent: GMNC docking peptide (human); KNAKRNLSSEFAN; partner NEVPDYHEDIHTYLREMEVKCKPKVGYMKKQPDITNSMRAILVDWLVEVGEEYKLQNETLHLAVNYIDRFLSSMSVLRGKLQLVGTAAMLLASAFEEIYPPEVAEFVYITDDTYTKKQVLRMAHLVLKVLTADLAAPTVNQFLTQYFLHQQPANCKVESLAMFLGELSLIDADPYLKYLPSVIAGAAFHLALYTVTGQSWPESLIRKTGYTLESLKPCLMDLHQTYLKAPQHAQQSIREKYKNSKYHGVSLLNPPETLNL
Variant,normalised enrichment score
L7T,0.368
R5D,-0.0405
K4E,0.107
N2H,5.26
S9W,5.28
A3P,3.08
S9Q,5.11
K4M,2.26
N2Y,3.57
K4N,1.91
L7P,0.07
S8Y,5.67
E10K,1.12
K4L,1.87
F11M,1.79
L7F,0.483
E10Y,3.03
A3G,1.52

# Repeated from above (sample 5):
Variant,normalised enrichment score
K4E,0.107
K4M,2.26
S9Q,5.11
S8Y,5.67
L7T,0.368
N2Y,3.57
F11M,1.79
